Results gathered from unrelated publications.
Protocols differ between the studies behind these lines. Numbers after ± are the reported error.

SMILES | organism | assay | test system | conditions | MIC
[O-][N+]1=C(c2ccsc2)C2=NCCCN2c2ccccc21 | Clostridioides difficile | microbial growth | ATCC43255 | – | 4 µg/mL
CC[C@H](C)[C@H](NC(=O)[C@H](C)NC(=O)CNC(=O)[C@@H](N)CCSC)C(=O)N[C@@H](C)C(=O)N[C@@H](CCCCN)C(=O)N[C@@H](CCCNC(=N)N)C(=O)N[C@H](C(=O)N[C@@H](C)C(=O)N[C@@H](CCCCN)C(=O)N[C@@H](Cc1ccccc1)C(=O)NCC(=O)N[C@@H](Cc1c[nH]c2ccccc12)C(=O)N1CCC[C@H]1C(=O)N[C@@H](Cc1ccccc1)C(=O)N[C@H](C(=O)N[C@@H](CCCCN)C(=O)N[C@@H](CCCCN)C(=O)N[C@@H](Cc1ccccc1)C(=O)N[C@@H](Cc1ccc(O)cc1)C(=O)N[C@@H](CCCCN)C(=O)N[C@@H](CCC(N)=O)C(=O)N[C@H](C(=O)N[C@@H](CCSC)C(=O)N[C@@H](CCC(N)=O)C(=O)N[C@@H](Cc1ccccc1)C(=O)N[C@H](C(=O)NCC(=O)N[C@@H](CCC(N)=O)C(=O)NCC(=O)N[C@@H](Cc1c[nH]c2ccccc12)C(=O)N[C@H](C(=O)N[C@H](C(=O)N[C@@H](CC(=O)O)C(=O)N[C@@H](CCC(N)=O)C(=O)N[C@H](C(=O)N[C@@H](CCC(=O)O)C(=O)N[C@@H](CCCCN)C(=O)N[C@@H](Cc1c[nH]c2ccccc12)C(=O)N[C@@H](CC(C)C)C(=O)N[C@@H](CCCCN)C(=O)N[C@@H](CCCNC(=N)N)C(=O)N[C@@H](Cc1c[nH]cn1)C(=O)O)[C@@H](C)CC)[C@@H](C)CC)[C@@H](C)O)[C@@H](C)CC)[C@@H](C)CC)[C@@H](C)CC)C(C)C | Bacillus subtilis subsp. subtilis | – | ATCC 23857 | 10 h | 22.2 ± 0.1 µM
C=C(NC(=O)C(=C)NC(=O)c1csc(C2=NC3c4csc(n4)C4NC(=O)c5csc(n5)C(C(C)(O)C(C)O)NC(=O)C5CSC(=N5)C(=CC)NC(=O)C(C(C)O)NC(=O)c5csc(n5)C3(CC2)NC(=O)C(C)NC(=O)C(=C)NC(=O)C(Cc2ccc(O)cc2)NC(=O)C(C(C)CC)NC2C=Cc3c(C(C)O)cc(nc3C2O)C(=O)OC4C)n1)C(N)=O (stereo not drawn) | Bacillus sp. | broth microdilution | ATCC 27859 | 18 h, 37 °C | 0.27 µg/mL
CN[C@@H]1[C@H](O)[C@H](NC)[C@H]2O[C@]3(O)[C@H](O[C@@H]2[C@H]1O)O[C@H](C)C[C@@]3(O)CNCc1ccc(F)cc1 | Streptococcus pneumoniae | – | resistant mutants, RpsE G27R | – | > 200 µg/mL
CC[C@H](C)[C@@H]1NC(=O)CNC(=O)[C@H](CCCCN)NC(=O)[C@H](C)NC(=O)[C@H](CCC(=O)O)NC(=O)[C@H](Cc2ccccc2)NC(=O)[C@H](CO)NC(=O)[C@H](CC(C)C)NC(=O)[C@H](C(C)C)NC(=O)[C@H](CC(=O)O)NC(=O)[C@@H](NC(=O)[C@@H](NC(=O)[C@@H](N)C(C)C)[C@@H](C)O)CSSC[C@@H]2NC(=O)[C@H](CO)NC(=O)CNC(=O)CNC(=O)[C@H](CCCCN)NC(=O)[C@H](CCCCN)NC(=O)[C@H](CCCNC(=N)N)NC(=O)[C@H](CC(C)C)NC(=O)[C@H](C)NC(=O)[C@H]([C@@H](C)CC)NC(=O)[C@H](CSSC[C@@H](C(=O)N[C@@H](CCCNC(=N)N)C(=O)N[C@@H](CC(N)=O)C(=O)O)NC(=O)[C@H](C(C)C)NC(=O)[C@H](C)NC(=O)[C@H](C(C)C)NC(=O)CNC(=O)[C@H](CC(N)=O)NC(=O)[C@H](CCC(N)=O)NC2=O)NC(=O)[C@H](Cc2c[nH]cn2)NC(=O)[C@H](CC(C)C)NC(=O)[C@H](C)NC(=O)[C@H](C)NC(=O)[C@H](C)NC(=O)[C@H](CO)NC(=O)[C@H](Cc2c[nH]cn2)NC(=O)[C@H](CC(N)=O)NC(=O)[C@H](C(C)C)NC(=O)[C@H](C)NC1=O | Salmonella typhimurium | broth microdilution | KCTC 1926 | 16 h, 37 °C | > 100 µM
CC[C@H](C)[C@H](NC(=O)[C@H](CO)NC(=O)[C@H](CO)NC(=O)[C@H](Cc1ccccc1)NC(=O)CN)C(=O)N[C@@H](Cc1ccccc1)C(=O)N[C@@H](CCCNC(=N)N)C(=O)NCC(=O)N[C@H](C(=O)N[C@@H](C)C(=O)N[C@@H](CCCCN)C(N)=O)C(C)C | Escherichia coli | – | ATCC 8739 | together with: 6 µM NH4Cl | > 128 µM
CC[C@@H](C)[C@@H](NC(=O)[C@@H](C)NC(=O)[C@@H](CCCCN)NC(=O)[C@@H](CC(C)C)NC(=O)[C@@H](C)NC(=O)[C@H](NC(=O)[C@@H](Cc1c[nH]cn1)NC(=O)[C@@H](CC(C)C)NC(=O)[C@H](NC(=O)[C@H](NC(=O)[C@@H](CCCCN)NC(=O)[C@@H](CCCCN)NC(=O)[C@@H](C)NC(=O)[C@@H](CO)NC(=O)[C@@H](CCCCN)NC(=O)[C@@H](Cc1ccccc1)NC(=O)[C@H](NC(=O)[C@@H](CCCCN)NC(=O)[C@@H](CC(C)C)NC(=O)[C@@H](Cc1ccccc1)NC(=O)[C@@H](CO)NC(=O)[C@@H](CCCCN)NC(=O)[C@@H](Cc1c[nH]c2ccccc12)NC(=O)[C@@H](CCCCN)NC(C)=O)[C@H](C)O)[C@H](C)O)C(C)C)[C@H](C)O)C(=O)N[C@H](CO)C(=O)N[C@H](CO)C(N)=O | Acinetobacter baumannii | broth microdilution | ATCC 17978 | 24 h, 37 °C | 0.8 µM
CC(C)C[C@@H]1NC(=O)[C@H](C)NC(=O)[C@H](NC(=O)[C@H](CO)NC(=O)[C@@H](CCCCN)NC(=O)[C@@H](CC(C)C)NC(=O)[C@@H](N)Cc2ccccc2)[C@H](C(N)=O)OC(=O)[C@H](C)NC1=O | Bacillus subtilis Staphylococcus epidermidis | – | ATCC 14990 | tested as TFA salt | 32 µg/mL
CC1C(=NNC(=O)c2ccncc2)C(C)C(c2ccc(Cl)cc2)OC1c1ccc(Cl)cc1 (stereo not drawn) | Rhizopus | – | – | 72 to 96 h | 50 µg/mL
[O-][N+]1=C(c2ccccc2)C2=NCCCN2c2ncccc21 | Cutibacterium acnes | microbial growth | – | – | 16 µg/mL
CN[C@@H]1[C@H](O)[C@H](NC)[C@H]2O[C@]3(O)[C@H](O[C@@H]2[C@H]1O)O[C@H](C)C[C@@]3(O)CNCc1ccc(OC(F)(F)F)cc1 | Streptococcus pneumoniae | – | Daw27 drug resistant | – | 3 µg/mL
[O-][N+]1=C(c2ccc(Cl)cc2)C2=NCCCCN2c2ccccc21 | Clostridioides difficile | microbial growth | ATCC43255 | – | 4 µg/mL
C[C@@H](c1ccn(Cc2ccc(Cl)c(Cl)c2)n1)[C@](O)(Cn1cnnn1)c1ccc(F)cc1F | Candidozyma auris | microbial growth | D12 | 24 h, drug-resistant strain, clinical isolate | 2 µg/mL
CC(C)C[C@H](NC(=O)[C@H](CCCCN)NC(=O)[C@H](C)NC(=O)[C@H](CC(C)C)NC(=O)[C@H](CCCCN)NC(=O)[C@H](CCCCN)NC(=O)[C@H](C)NC(=O)[C@H](CC(C)C)NC(=O)[C@H](CCCCN)NC(=O)[C@H](C)NC(=O)[C@H](CC(C)C)NC(=O)[C@H](CCCCN)NC(=O)[C@H](Cc1c[nH]cn1)NC(=O)CNC(=O)CN)C(=O)N[C@@H](C)C(=O)N[C@@H](CCCCN)C(N)=O | Enterobacter aerogenes | – | ATCC 13048 | 18 to 20 h | > 32 µM
CC[C@H](C)[C@H](NC(=O)[C@H](C)NC(=O)[C@@H](NC(=O)[C@H](CC(=O)O)NC(=O)[C@H](CCCCN)NC(=O)[C@H](CO)NC(=O)[C@@H](NC(=O)[C@H](CC(N)=O)NC(=O)[C@H](C)NC(=O)[C@@H](NC(=O)[C@H](CCC(=O)O)NC(=O)[C@H](CCCCN)NC(=O)[C@@H](NC(=O)[C@@H](NC(=O)[C@H](Cc1c[nH]cn1)NC(=O)[C@H](CCCCN)NC(=O)[C@@H](NC(=O)[C@H](CCCCN)NC(=O)[C@H](CCCCN)NC(=O)[C@@H](NC(=O)[C@H](CC(C)C)NC(=O)[C@H](CCCCN)NC(=O)[C@H](CC(N)=O)NC(=O)[C@H](Cc1ccccc1)NC(=O)[C@H](CCCNC(=N)N)NC(=O)[C@H](CCCCN)NC(=O)[C@H](CCCNC(=N)N)NC(=O)[C@H](Cc1ccccc1)NC(=O)CN)C(C)C)C(C)C)[C@@H](C)O)[C@@H](C)CC)[C@@H](C)O)C(C)C)C(C)C)C(=O)N[C@H](C(=O)N[C@@H](C)C(=O)NCC(=O)N[C@@H](CO)C(=O)NCC(=O)N[C@H](C(=O)N[C@@H](C)C(=O)N[C@H](C(=O)NCC(=O)N[C@@H](C)C(=O)N[C@@H](C)C(=O)N[C@@H](CCSC)C(N)=O)C(C)C)C(C)C)C(C)C | Enterobacteriaceae, Acinetobacter baumannii | – | reference strains, CAMHB | – | 4 µg/mL
C[C@@H](c1ccn(Cc2ccc(OC(F)(F)F)cc2)n1)[C@](O)(Cn1cnnn1)c1ccc(F)cc1F | Candidozyma auris | growth | 888 drug-resistant isolate | 24 h, 30 °C, ≥50% inhibition | 1 µg/mL
CCCCCCCCCCCCCC(=O)N[C@H](CCN)C(=O)N[C@@H]1C(=O)N[C@@H](CCN)C(=O)N[C@@H](CC(C)C)C(=O)N[C@@H](CCN)C(=O)N[C@H](Cc2ccccc2)C(=O)N[C@@H](CC(C)C)C(=O)N[C@@H](CCN)C(=O)N[C@H](CCN)C(=O)N[C@@H](C(C)C)C(=O)N[C@@H](CC(=O)O)C(=O)O[C@@H]1C | fungal pathogens | – | – | highest concentration tested, inactive | > 64 µg/mL
CC[C@H](C)[C@H](NC(=O)[C@H](CCCN)NC(=O)[C@H](CC(N)=O)NC(=O)[C@H](CC(C)C)NC(=O)[C@H](Cc1ccccc1)NC(=O)[C@H](CCCN)NC(=O)[C@H](CCCNC(=N)N)NC(=O)[C@H](CC(C)C)NC(=O)[C@H](CC(C)C)NC(=O)[C@H](CCCN)NC(=O)[C@H](CCCNC(=N)N)NC(=O)[C@H](CC(C)C)NC(=O)CNC(C)=O)C(=O)N[C@@H](CCCN)C(=O)N[C@@H](CCCNC(=N)N)C(N)=O | Citrobacter freundii | bacterial growth, broth microdilution | multidrug-resistant | – | 3.12 µM

Excerpt of the above:
SMILES | organism | assay | test system | conditions | MIC
[O-][N+]1=C(c2ccccc2)C2=NCCCN2c2ncccc21 | Cutibacterium acnes | microbial growth | – | – | 16 µg/mL
CN[C@@H]1[C@H](O)[C@H](NC)[C@H]2O[C@]3(O)[C@H](O[C@@H]2[C@H]1O)O[C@H](C)C[C@@]3(O)CNCc1ccc(OC(F)(F)F)cc1 | Streptococcus pneumoniae | – | Daw27 drug resistant | – | 3 µg/mL
